Measured values of several laboratories.
A part holds a random share of what one study measured. Several values in a cell are separate wells, animals, samples, runs or records. Values after ≈ are worked out from the molar mass of the structure shown.
Sequence of UniProt P41143 (whole entry, looked up): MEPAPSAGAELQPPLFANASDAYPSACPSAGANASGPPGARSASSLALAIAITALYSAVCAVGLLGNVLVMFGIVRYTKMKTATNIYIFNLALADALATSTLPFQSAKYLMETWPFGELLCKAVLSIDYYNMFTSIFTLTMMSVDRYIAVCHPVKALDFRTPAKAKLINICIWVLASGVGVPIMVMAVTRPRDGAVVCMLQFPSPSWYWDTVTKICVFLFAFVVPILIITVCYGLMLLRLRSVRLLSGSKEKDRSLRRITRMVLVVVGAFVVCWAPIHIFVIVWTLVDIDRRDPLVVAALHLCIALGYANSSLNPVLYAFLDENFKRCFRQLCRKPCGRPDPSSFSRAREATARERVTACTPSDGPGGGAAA

Sample 1 — organism: Arabidopsis thaliana; strain: Col-0
SMILES: C=CCN1C(=O)C(O)(C(=O)O)Oc2cc(F)ccc21 (centres unmarked)
| concentration | setting | hypocotyl length |
| --- | --- | --- |
| 6.25 µg/mL | seed germination, single repetition | 2.08 cm and 2.03 cm and 2.11 cm and 2.02 cm |
| 25 µg/mL | seed germination, single repetition | 1.72 cm and 1.73 cm and 1.66 cm and 1.79 cm and 1.7 cm |
| 6.25 µg/mL | seed germination, repetition mean | 2.05 cm |
| 12.5 µg/mL | seed germination, single repetition | 1.8 cm and 1.78 cm and 1.82 cm and 1.87 cm and 1.79 cm |
| 50 µg/mL | seed germination, single repetition | 1.57 cm and 1.54 cm and 1.52 cm and 1.58 cm and 1.59 cm |

Sample 2 — cells: human cells
SMILES: N=C(N)NCCCCCN1CC[C@]23c4c5ccc(O)c4O[C@H]2c2nc4ccccc4cc2C[C@@]3(O)[C@H]1C5
| target | EC50 |
| --- | --- |
| Delta-type opioid receptor, with GoB (OPRD1, Homo sapiens, UniProt P41143) | 1.39 nM |
| Delta-type opioid receptor, with Gi3 (OPRD1, Homo sapiens, UniProt P41143) | 4.25 nM |
| Delta-type opioid receptor, with Gz (OPRD1, Homo sapiens, UniProt P41143) | 1.28 nM |
| Delta-type opioid receptor, with GoA (OPRD1, Homo sapiens, UniProt P41143) | 3.47 nM |

Sample 3 — species: Crbn I391V mouse, MC-38 tumour
SMILES: Cn1cc(-c2cccc(CN3CCC4(CC3)COc3c4ccc4c3CN([C@H]3CCC(=O)NC3=O)C4=O)c2)cn1
| route | dose | time | setting | added | body weight change |
| --- | --- | --- | --- | --- | --- |
| – | 30 mg/kg | day 6 | – | anti-LAG3 antibody 10 mg/kg weekly | -1.2% and -0.4% and 4.7% and -4.6% |
| – | 30 mg/kg | day 36 | – | anti-LAG3 antibody 10 mg/kg weekly | 4.9% and -1.4% and 5.3% |
| oral, daily | 30 mg/kg | day 19 | anti-PD1 combination study | – | 6.5% and -1% and 5.6% and 4.9% and 5.2% |
| oral | 30 mg/kg once daily | day 18 | – | – | -2% and -3.8% and -0.5% and 0.4% and -1.4% |
| oral | 30 mg/kg once daily | day 10 | – | – | -5% and 5% and -8.1% and -2.3% and -5.7% |
| – | 30 mg/kg | day 4 | – | anti-LAG3 antibody 10 mg/kg weekly | -3.8% and -6.3% and -7% and -5.7% and -5.5% |
| oral, daily | 30 mg/kg | day 8 | anti-PD1 combination study | – | -0.7% and 1.1% and -1% and 3.4% |
| – | 30 mg/kg | day 8 | – | anti-LAG3 antibody 10 mg/kg weekly | -4.9% and -5.1% and -12.4% and 6.6% and -1.8% |
| oral, daily | 30 mg/kg | day 12 | anti-PD1 combination study | – | -0.3% and -1.3% and 2% and 3.2% and 3% |
| – | 30 mg/kg | day 27 | – | anti-LAG3 antibody 10 mg/kg weekly | -3.8% and -0.4% and 1.6% and -3.4% and 4.9% |
| oral | 30 mg/kg once daily | day 1 | – | – | 0% |
| – | 30 mg/kg | day 15 | – | anti-LAG3 antibody 10 mg/kg weekly | -5.5% and 2.9% and 8.5% and -4.1% and -0.8% and -0.4% and -6.3% and -5.9% |
| – | 30 mg/kg | day 32 | – | anti-LAG3 antibody 10 mg/kg weekly | -0.7% and 7% and 7.4% |
| oral, daily | 30 mg/kg | day 5 | anti-PD1 combination study | – | 3.9% and 3.1% and 1.1% and 5.3% and 3% |
| oral | 30 mg/kg once daily | day 7 | – | – | 3.7% and -3.4% and 1.8% and -1% and -4.5% |
| oral, daily | 30 mg/kg | day 25 | anti-PD1 combination study | – | 2.4% and 0% and -6% and -0.7% and 6.1% and 3.7% and 3% |

Sample 4
SMILES: CCCCC[C@@H](O)CC(=O)N[C@H]1COC(=O)[C@H](CO)NC(=O)[C@H](Cc2ccccc2)NC(=O)[C@@H](Cc2c[nH]c3ccccc23)NC(=O)[C@@H](C(C)O)NC(=O)[C@H](CC(N)=O)NC(=O)[C@@H](C(C)C)NC(=O)[C@H](CC(C)C)NC(=O)[C@@H](Cc2ccc(O)cc2)N(C)C(=O)CNC(=O)[C@H](CO)NC(=O)[C@@H](CC(N)=O)NC1=O (some centres unmarked)
| organism | effect on | strain | time | added | MIC [µg/mL] |
| --- | --- | --- | --- | --- | --- |
| Staphylococcus aureus | – | USA300 | – | menaquinone 16 µg/mL | > 64 |
| Staphylococcus aureus | – | USA300 | – | menaquinone 64 µg/mL | > 64 |
| Escherichia coli | microbial growth | – | 16 h | – | > 64 |
| Staphylococcus aureus | – | USA300 | – | menaquinone 32 µg/mL | > 64 |
| Staphylococcus aureus | – | USA300 | – | menaquinone 1 µg/mL | 16 (≈ 10.6 µM) |
| Staphylococcus aureus | – | USA300 | – | ubiquinone 0 µg/mL | 4 (≈ 2.64 µM) |
| Staphylococcus aureus | – | USA300 | – | menaquinone 0 µg/mL | 4 (≈ 2.64 µM) |

Repeated from above (sample 3):
| route | dose | time | setting | added | body weight change |
| --- | --- | --- | --- | --- | --- |
| oral, daily | 30 mg/kg | day 25 | anti-PD1 combination study | – | 2.4% and 0% and -6% and -0.7% and 6.1% and 3.7% and 3% |
| oral | 30 mg/kg once daily | day 7 | – | – | 3.7% and -3.4% and 1.8% and -1% and -4.5% |
| – | 30 mg/kg | day 36 | – | anti-LAG3 antibody 10 mg/kg weekly | 4.9% and -1.4% and 5.3% |
| – | 30 mg/kg | day 27 | – | anti-LAG3 antibody 10 mg/kg weekly | -3.8% and -0.4% and 1.6% and -3.4% and 4.9% |
| oral | 30 mg/kg once daily | day 1 | – | – | 0% |
